Measurements of several laboratories.
Numbered parts are unrelated; each lists some results of a single study.

Set 1
Target: Histone acetyltransferase KAT6A, both winged helices, GST fusion (KAT6A, Homo sapiens, UniProt Q92794, residues 1-181)
Technique: protein binding microarray
Molecule type: double-stranded DNA, one strand shown
Matrix: in vitro
Tested at: not given
Setting: 8-mer, flanks averaged, mean of 2 arrays, mostly near background
Relative to: not given
Direction: higher = stronger binding
Residues (chain): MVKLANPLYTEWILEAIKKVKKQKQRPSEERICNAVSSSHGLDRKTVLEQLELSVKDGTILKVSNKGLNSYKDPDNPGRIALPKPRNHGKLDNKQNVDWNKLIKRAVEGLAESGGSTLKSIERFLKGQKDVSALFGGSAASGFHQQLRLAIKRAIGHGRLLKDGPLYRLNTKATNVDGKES
| Sequence | E-score |
| --- | --- |
| CCTGAGCG | 0.163 |
| AATGTCAG | -0.135 |
| AAAGCTGA | -0.0255 |
| TCACATCA | -0.105 |
| ACACGCGT | 0.27 |
| GGACTAAC | -0.0411 |
| AGGATTCC | -0.182 |
| GATAAGTA | 0.0378 |
| CGTAAGTC | 0.0337 |
| CTAATTCC | -0.121 |
| CCTAGCGA | -0.0661 |
| GCTAAGGA | -0.0307 |
| GGACGTAC | 0.00287 |
| CACACCCC | -0.162 |
| AAAAAGAC | -0.105 |
| CTCACAAA | 0.0031 |
| CGCACCTA | 0.0347 |
| CTCCCTCC | -0.12 |
| GGACCACC | -0.0671 |
| ATGAATGG | -0.219 |
| CATTGCCG | 0.224 |
| ACACGGAT | 0.156 |
| CATGAATC | 0.0184 |
| CATTCCGA | 0.0982 |
| ACAGCTAC | -0.282 |

Set 2
Target: PABPC1L2, full length, GST fusion (mouse, UniProt A0ABA7IW68)
Technique: RNAcompete
Molecule type: RNA
Matrix: in vitro
Tested at: 20 nM
Setting: 7-mer, probes averaged, single round
Relative to: mean of 7-mers
Direction: higher = stronger binding
Target sequence (chain): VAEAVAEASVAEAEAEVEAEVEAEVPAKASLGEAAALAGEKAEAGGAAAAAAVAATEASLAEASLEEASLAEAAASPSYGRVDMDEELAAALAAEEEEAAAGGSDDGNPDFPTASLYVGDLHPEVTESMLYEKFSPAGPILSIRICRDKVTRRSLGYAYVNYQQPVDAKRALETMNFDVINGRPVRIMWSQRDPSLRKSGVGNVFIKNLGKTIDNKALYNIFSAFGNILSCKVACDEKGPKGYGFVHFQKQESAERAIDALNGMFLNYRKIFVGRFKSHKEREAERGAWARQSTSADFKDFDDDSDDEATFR
| Sequence | 7-mer Z-score |
| --- | --- |
| AGGAUGU | -0.0246 |
| AUCCGUA | -0.222 |
| CUCCACC | -0.267 |
| CGAAGUC | -0.264 |
| GCGUUAG | -0.304 |
| UAAUAAU | -0.124 |
| UCCUGCG | -0.289 |
| UAUGUAC | -0.0355 |
| UGGAUUA | -0.135 |
| GAGGCGU | -0.0391 |
| UAGGACU | 0.0642 |
| UGUAGAA | 0.224 |
| UAAUUAA | 0.00617 |
| UGAUACU | -0.142 |
| AUUCACC | -0.344 |
| ACCUAAC | -0.248 |

Set 3
Target: Ras GTPase-activating protein-binding protein 1, RRM domain (G3BP1, Homo sapiens, UniProt Q13283)
Chain of UniProt Q13283 (whole entry, looked up): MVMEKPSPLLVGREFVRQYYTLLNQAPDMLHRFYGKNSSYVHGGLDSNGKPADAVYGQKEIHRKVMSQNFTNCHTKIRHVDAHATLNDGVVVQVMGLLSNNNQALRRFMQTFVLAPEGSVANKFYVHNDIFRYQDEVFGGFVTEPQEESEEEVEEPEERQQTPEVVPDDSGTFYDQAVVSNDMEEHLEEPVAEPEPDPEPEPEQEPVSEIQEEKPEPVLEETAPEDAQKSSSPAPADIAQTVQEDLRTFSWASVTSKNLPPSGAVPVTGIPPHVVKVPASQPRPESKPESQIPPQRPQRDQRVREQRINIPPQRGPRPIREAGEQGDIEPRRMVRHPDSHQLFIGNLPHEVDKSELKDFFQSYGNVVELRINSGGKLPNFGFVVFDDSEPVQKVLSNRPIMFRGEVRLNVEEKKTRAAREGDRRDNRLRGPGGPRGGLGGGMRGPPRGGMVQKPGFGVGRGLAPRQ
Technique: RNA Bind-n-Seq
Molecule type: RNA
Matrix: in vitro
Tested at: 1 µM
Setting: whole 134-nt RNA, ends assumed
Together with: 150 mM KCl
Relative to: input library
Direction: higher = stronger binding
| Sequence | log2 enrichment |
| --- | --- |
| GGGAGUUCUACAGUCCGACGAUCAAGUCCUGUGCUACACAUCGUAUGUACCGAAUCGGUUUGGUUUUUUUGGUUUUUGGAAAGUAUUAUGUUACGCCGUUCGGAUCUGCACUUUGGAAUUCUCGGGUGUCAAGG | -0.181 |
| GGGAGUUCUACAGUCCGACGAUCACCAUGCAGGUGGGCAUCUUUGGGAAGUGGGGCAAGGGGGGGAUAGGGAGGGGGGUAACAAUUUGGGAACAGGUGGUCCCAGGUCGUUUCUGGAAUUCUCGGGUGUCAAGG | 1.02 |
| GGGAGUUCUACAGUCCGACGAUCUGGCCCUGGUGGCAUGCGGGGAGGAAGAGGUGGCCUCAUGGAUCGUGGUGGUCCCGGUGGAACGUUCAGAGGUGGCCGUGGUGGAGACAGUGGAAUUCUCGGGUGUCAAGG | 0.734 |
| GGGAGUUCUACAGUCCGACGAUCCCUCAAGUCCUGUGCUACACAUCGUAUGUACCGAAUCGGCCGGCCGGGCCGGAAAGUAUUAUGUUACGCCGUUCGGAUCUGCACUUCCAGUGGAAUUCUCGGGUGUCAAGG | -0.521 |
| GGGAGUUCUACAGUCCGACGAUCAGUCCUGUGCUACACAUCGUAUGUACCGAAUCGGUUUUUGGGGUUUUUGGUUUUUGGAAAGUAUUAUGUUACGCCGUUCGGAUCUGCACUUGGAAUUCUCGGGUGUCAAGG | -0.0893 |
| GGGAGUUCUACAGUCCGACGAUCAAGUCCUGUGCUACACAUCGUAUGUACCGAAUCGGGUGGGAAAGGGAAAAAAAGGGAAAGUAUUAUGUUACGCCGUUCGGAUCUGCACUUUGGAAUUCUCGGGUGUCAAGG | 0.382 |
| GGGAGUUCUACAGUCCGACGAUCCAAGUCCUGUGCUACACAUCGUAUGUACCGAAUCGGGUUUGGUUUGGGGUUUGGGGAAAGUAUUAUGUUACGCCGUUCGGAUCUGCACUUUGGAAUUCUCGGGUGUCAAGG | 0.0809 |
| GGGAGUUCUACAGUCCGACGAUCUCAAGUCCUGUGCUACACAUCGUAUGUACCGAAUCGGCCCGGGCCCGGCCCGGGGAAAGUAUUAUGUUACGCCGUUCGGAUCUGCACUUCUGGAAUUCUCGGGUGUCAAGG | -0.683 |
| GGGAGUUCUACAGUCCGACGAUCCCUGUGCUACACAUCGUAUGUACCGAAUCGGGGUUUGGGGAAAAAAAGGGGUUUUUGGGGAAAGUAUUAUGUUACGCCGUUCGGAUCUGCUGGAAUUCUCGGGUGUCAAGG | 0.948 |

Set 4
Target: Prothrombin, mature alpha-thrombin (F2, Homo sapiens, UniProt P00734)
Technique: aptamer microarray, sandwich
Molecule type: DNA with 2'F-ANA
Matrix: in vitro
Tested at: 200 nM
Setting: whole 15-mer aptamer, many near background
Together with: Cy3 exosite-II aptamer, 400 nM
Direction: higher = stronger binding
Sequence: GGTTGGTGTGGTTGG
| Modification | mean fluorescence intensity [a.u.] |
| --- | --- |
| 2'F-ANA at 1 3 6 7 8 9 11 13 | 242 |
| 2'F-ANA at 2 7 8 9 13 14 15 | 152 |
| 2'F-ANA at 2 3 5 9 11 14 15 | 81.2 |
| 2'F-ANA at 4 8 12 13 14 | 139 |
| 2'F-ANA at 1 2 3 4 6 7 10 11 12 13 14 15 | 80.9 |
| 2'F-ANA at 1 3 4 5 9 10 11 12 | 94.1 |
| 2'F-ANA at 2 5 7 9 10 11 | 47.6 |
| 2'F-ANA at 4 5 6 7 8 11 14 15 | 45.6 |
| 2'F-ANA at 1 2 3 4 5 8 12 14 | 49.8 |
| 2'F-ANA at 1 3 4 5 6 13 14 15 | 44.7 |
| 2'F-ANA at 1 2 3 5 7 8 9 10 11 12 | 74 |
| 2'F-ANA at 4 7 8 9 11 12 13 14 15 | 98.4 |
| 2'F-ANA at 1 4 15 | 159 |
| 2'F-ANA at 1 7 10 13 14 | 53.9 |
| 2'F-ANA at 1 2 6 8 11 12 13 14 | 64.8 |
| 2'F-ANA at 1 3 6 7 10 11 14 | 56.6 |
| 2'F-ANA at 1 2 3 5 6 8 10 13 15 | 54.4 |
| 2'F-ANA at 3 5 6 8 9 10 12 | 63.4 |
| 2'F-ANA at 1 3 5 6 10 11 12 13 14 15 | 48.1 |
| 2'F-ANA at 1 2 4 5 8 10 14 | 48.9 |
| 2'F-ANA at 1 2 4 6 7 8 10 11 13 15 | 52.7 |
| 2'F-ANA at 1 3 5 6 7 8 9 12 15 | 147 |
| 2'F-ANA at 2 4 5 10 11 14 15 | 47.1 |
| 2'F-ANA at 5 7 9 10 11 13 15 | 47.3 |
| 2'F-ANA at 1 5 7 10 11 12 13 | 45.4 |

A few entries again (set 4):
| Modification | mean fluorescence intensity [a.u.] |
| --- | --- |
| 2'F-ANA at 1 2 3 5 7 8 9 10 11 12 | 74 |
| 2'F-ANA at 4 7 8 9 11 12 13 14 15 | 98.4 |
| 2'F-ANA at 1 4 15 | 159 |
| 2'F-ANA at 1 7 10 13 14 | 53.9 |
| 2'F-ANA at 1 2 6 8 11 12 13 14 | 64.8 |
| 2'F-ANA at 1 3 6 7 10 11 14 | 56.6 |
| 2'F-ANA at 1 2 3 5 6 8 10 13 15 | 54.4 |
| 2'F-ANA at 3 5 6 8 9 10 12 | 63.4 |
| 2'F-ANA at 1 3 5 6 10 11 12 13 14 15 | 48.1 |
| 2'F-ANA at 1 2 4 5 8 10 14 | 48.9 |
